Published values of several laboratories.
Lines come from different studies, so protocols differ.

Compound	test	test system	conditions	tumour growth inhibition
O=c1[nH]c(N2CCC3(CC2)CN(CCO)c2cc(F)cc(F)c23)nc2c1CCCC2	–	mouse, COLO 320DM xenograft	intraperitoneal, 150 mg/kg twice daily, 11 days	47.2%
N#Cc1cccc(-c2ccc(=O)n(Cc3cccc(-c4ncc(OCC5CCN(CC(=O)NCCOCCNc6ccc7c(c6)C(=O)N(C6CCC(=O)NC6=O)C7=O)CC5)cn4)c3)n2)c1 (stereo not shown)	–	mouse Hs746T xenograft	oral, 20 mg/kg daily, 12 days	71.4%
NC(=O)c1cccnc1.O.O=c1[nH]cc(F)c(=O)[nH]1.O=c1[nH]cc(F)c(=O)[nH]1.O=c1[nH]cc(F)c(=O)[nH]1	–	nude mouse HCT-116 xenograft	0.018 mmol/kg/day, 21 days	39.2%
C=CC(=O)N1C[C@H](C)N(c2nc(OC[C@@]34CCCN3C[C@H](F)C4)nc3c(F)c(-c4ccc(F)c5sc(N)c(C#N)c45)c(C(F)(F)F)cc23)C[C@H]1C	–	mouse MIA PaCa-2 xenograft	oral, 1 mg/kg daily, 28 days	69%
CC(=O)Oc1c2c(c3ccc4c(c3c1OC(C)=O)C=CC(=O)C4(C)C)OC[C@@H]2C	–	mouse 4T1 tumour	intravenous, 10 mg/kg daily, added: anti-Ly6G neutrophil depletion	19.6%
Cn1cc(-c2cc(N3CCCCS3(=O)=O)ccc2N[C@H]2CC[C@H](C)CC2)c2cc[nH]c2c1=O (stereo in doubt)	–	mouse, SMOA1 medulloblastoma allograft, SMO W539L	oral, 1 mg/kg twice daily	68.7%
CN1Cc2cnc3ccc(-c4ccc(N)nc4)nc3c2N(c2cccc(C(F)(F)F)c2)C1=O	–	PC-3 xenograft, mouse	oral, 15 mg/kg once daily, 14 days	37.3%
COc1cc(/C=C/C(=O)NCCCCCCNC2=C3C[C@@H](C)C[C@H](OC)[C@H](O)[C@@H](C)/C=C(\C)[C@H](OC(N)=O)[C@@H](OC)/C=C\C=C(/C)C(=O)NC(=CC2=O)C3=O)ccc1O	refers to: tumour weight	MDA-MB-231, mouse xenograft	intravenous, 10 mg/kg every three days, 15 d	78.9%
CN1CCC(N[C@@H]2CCc3[nH]c4c(C(N)=O)ccc(-c5ccccc5Cl)c4c3C2)CC1	–	NOD/SCID mouse H446 xenograft	intravenous, 10 mg/kg every three days	85%
CN1CCN(c2ccc(Nc3ncc(Cl)c(Nc4ccccc4P(C)(C)=O)n3)cc2Br)CC1	–	mouse, PC9-OR xenograft	oral, 30 mg/kg once daily, 14 days	83.5%
N#Cc1cccc(-c2ccc(=O)n(Cc3cccc(-c4ncc(OCC5CCN(CC(=O)N6CCN(c7ccc8c(c7)C(=O)N(C7CCC(=O)NC7=O)C8=O)CC6)CC5)cn4)c3)n2)c1 (stereo not shown)	–	mouse Hs746T xenograft	oral, 40 mg/kg daily, 12 days	99.2%
Cc1ccc(CN2C(=O)/C(=N\c3ccc(Cl)cc3Br)c3ccccc32)cc1	–	mouse, B16-F10 tumour	intraperitoneal, 20 mg/kg	76.1%
Cc1cc(O)cc(O)c1C(=O)c1c2c3c(c(O)cc(C)c3oc1=O)C(=O)c1c(O)cc(O)cc1-2	–	H22 subcutaneous, mouse	intraperitoneal, 15 mg/kg daily	62%

A few entries again:
Compound	test	test system	conditions	tumour growth inhibition
NC(=O)c1cccnc1.O.O=c1[nH]cc(F)c(=O)[nH]1.O=c1[nH]cc(F)c(=O)[nH]1.O=c1[nH]cc(F)c(=O)[nH]1	–	nude mouse HCT-116 xenograft	0.018 mmol/kg/day, 21 days	39.2%
C=CC(=O)N1C[C@H](C)N(c2nc(OC[C@@]34CCCN3C[C@H](F)C4)nc3c(F)c(-c4ccc(F)c5sc(N)c(C#N)c45)c(C(F)(F)F)cc23)C[C@H]1C	–	mouse MIA PaCa-2 xenograft	oral, 1 mg/kg daily, 28 days	69%
